Experimental data from different studies.
Parts stem from different laboratories: compare values within a part only.

Series 1
Target: PABPC1L2, full length, GST fusion (mouse, UniProt A0ABA7IW68)
Method: RNAcompete
Form: RNA
Matrix: in vitro
Concentration: 20 nM
Notes: 7-mer, probes averaged, single round
Relative to: mean of 7-mers
Reading: higher = stronger binding
Target sequence (chain): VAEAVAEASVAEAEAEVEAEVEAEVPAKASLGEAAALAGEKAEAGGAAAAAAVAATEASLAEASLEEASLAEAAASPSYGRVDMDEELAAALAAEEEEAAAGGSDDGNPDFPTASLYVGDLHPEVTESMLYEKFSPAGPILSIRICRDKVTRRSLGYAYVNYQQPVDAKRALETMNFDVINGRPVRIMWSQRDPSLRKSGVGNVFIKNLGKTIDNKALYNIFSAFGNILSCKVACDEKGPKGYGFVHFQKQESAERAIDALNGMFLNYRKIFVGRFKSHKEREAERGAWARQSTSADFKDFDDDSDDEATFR
For `AUCGCUA`, the 7-mer Z-score was -0.208.
The 7-mer Z-score of `AAAACCA` is reported as 3.49.
The 7-mer Z-score of `CGCGCUG` is reported as -0.331.
`UUUACUC` has a 7-mer Z-score of -0.3.
With `CAGAGAU` the 7-mer Z-score was -0.0246.
For `UCUCUGU`, the 7-mer Z-score was -0.353.
`CUCAUCA` has a 7-mer Z-score of -0.338.
`GGGGACA` gave a 7-mer Z-score of 0.383.
The 7-mer Z-score of `CGAAUGU` is reported as -0.228.
`AUCAAUU` has a 7-mer Z-score of -0.0518.
For `CUGUAGU`, the 7-mer Z-score was -0.313.
For `CUGCCUU`, the 7-mer Z-score was -0.42.
With `GCUGCCC` the 7-mer Z-score was -0.445.
For `CUAUCGA`, the 7-mer Z-score was -0.282.
`UUUCUGA` has a 7-mer Z-score of -0.38.
`GAUGGUG` has a 7-mer Z-score of -0.0663.
The 7-mer Z-score of `UUUUUAG` is reported as 0.0261.
`UCGGCGC` has a 7-mer Z-score of -0.237.

Series 2
Target: Prothrombin, mature alpha-thrombin (F2, Homo sapiens, UniProt P00734)
Method: aptamer microarray, sandwich
Form: DNA with 2'F-ANA
Matrix: in vitro
Concentration: 200 nM
Notes: whole 15-mer aptamer, many near background
Added: Cy3 exosite-II aptamer, 400 nM
Reading: higher = stronger binding
Oligonucleotide: GGTTGGTGTGGTTGG
`2'F-ANA at 1 4 6 9 13 15`: “mean fluorescence intensity” 79.1 a.u.
For `2'F-ANA at 1 2 3 5 7 8 9 10 13`, “mean fluorescence intensity” read 48.6 a.u.
For `2'F-ANA at 2 6 11 12`, “mean fluorescence intensity” read 467 a.u.
Under “mean fluorescence intensity”, `2'F-ANA at 1 2 3 6 7 8 10 12 13` is recorded as 87.2 a.u.
`2'F-ANA at 2 5 7 8 9 10 11 14 15` — result for “mean fluorescence intensity”: 47.7 a.u.
For `2'F-ANA at 1 4 5 7 8 10 11 14`, “mean fluorescence intensity” read 56.6 a.u.
For `2'F-ANA at 2 3 4 6 9 10 12 13 14 15`, “mean fluorescence intensity” read 131 a.u.
`2'F-ANA at 1 4 5 7 8 9 13`: “mean fluorescence intensity” 49.6 a.u.
For `2'F-ANA at 3 5 6 8 9 10 12 13 14`, “mean fluorescence intensity” read 49 a.u.
`2'F-ANA at 1 2 3 4 9 10 12 13 14 15` — result for “mean fluorescence intensity”: 54.1 a.u.
`2'F-ANA at 1 4 5 6 13 15`: “mean fluorescence intensity” 48.4 a.u.
Under “mean fluorescence intensity”, `2'F-ANA at 6 10 12 13 15` is recorded as 186 a.u.
Under “mean fluorescence intensity”, `2'F-ANA at 1 2 3 8 9 11 13` is recorded as 169 a.u.
For `2'F-ANA at 1 7 10 15`, “mean fluorescence intensity” read 56.1 a.u.
Under “mean fluorescence intensity”, `2'F-ANA at 1 2 6 9` is recorded as 139 a.u.
`2'F-ANA at 2 7 11 12 13 15` — result for “mean fluorescence intensity”: 566 a.u.
Under “mean fluorescence intensity”, `2'F-ANA at 1 4 8 10 12 13 15` is recorded as 65.7 a.u.
For `2'F-ANA at 4 5 6 7 8 11 14`, “mean fluorescence intensity” read 92.5 a.u.
For `2'F-ANA at 1 2 3 4 5 6 7 8 9 10 12 14`, “mean fluorescence intensity” read 49.6 a.u.
`2'F-ANA at 1 5 6 11 12 13 14 15` — result for “mean fluorescence intensity”: 57.5 a.u.
Under “mean fluorescence intensity”, `2'F-ANA at 2 3 7 9 10 12 15` is recorded as 412 a.u.
Under “mean fluorescence intensity”, `2'F-ANA at 3 10 12 14` is recorded as 469 a.u.
`2'F-ANA at 4 7 10 12 15` — result for “mean fluorescence intensity”: 131 a.u.

Series 3
Target: Fragile X messenger ribonucleoprotein 1, C-terminal low-complexity region (Fmr1, Mus musculus, UniProt P35922)
Method: RNA Bind-n-Seq
Form: RNA
Matrix: in vitro
Concentration: 200 nM
Notes: whole 134-nt RNA, ends assumed
Added: 150 mM KCl
Relative to: input library
Reading: higher = stronger binding
The log2 enrichment of `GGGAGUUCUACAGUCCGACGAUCUAACUUUAUAGGAGGAUCUGAUGGAUAUGGCAGUGGACGUGGAUUUGGGGAUGGCUAUAAUGGGUAUGGAGGAGGACCUGGAGGUGGCAAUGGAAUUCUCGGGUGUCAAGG` is reported as 0.24.
The log2 enrichment of `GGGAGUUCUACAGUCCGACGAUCAGUCCUGUGCUACACAUCGUAUGUACCGAAUCGGUUUUUUUGGAAAAAAAGGUUUGGAAAGUAUUAUGUUACGCCGUUCGGAUCUGCACUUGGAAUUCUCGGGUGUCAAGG` is reported as -1.63.
`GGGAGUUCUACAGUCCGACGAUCGUCCUGUGCUACACAUCGUAUGUACCGAAUCGGAAAAAGGAAAAAAAGGUUUUUUUGGAAAGUAUUAUGUUACGCCGUUCGGAUCUGCACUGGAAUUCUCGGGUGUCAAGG` has a log2 enrichment of -1.12.
`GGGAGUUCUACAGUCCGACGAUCCUCAAGUCCUGUGCUACACAUCGUAUGUACCGAAUCGGGGCCGGGCCGGGCCGGAAAGUAUUAUGUUACGCCGUUCGGAUCUGCACUUCCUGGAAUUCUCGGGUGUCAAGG` gave a log2 enrichment of -0.0188.
The log2 enrichment of `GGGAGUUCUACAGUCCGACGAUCUUCAACAACUAGUACUGCUUCAAAUUAUCCAGAUGUGUUAACAAGGCCUUCUCUUCAUCGGAGCCAUCUGAAUUUUUCCAUGUUGGAAUCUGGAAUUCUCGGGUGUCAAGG` is reported as 0.267.
With `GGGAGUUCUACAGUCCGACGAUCAAGUCCUGUGCUACACAUCGUAUGUACCGAAUCGGUUUUUUUGGUUUUUUUGGUGGAAAGUAUUAUGUUACGCCGUUCGGAUCUGCACUUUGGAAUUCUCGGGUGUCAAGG` the log2 enrichment was -0.849.
`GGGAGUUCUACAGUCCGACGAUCCACAGACAACACGCACCCACACAGACACAGAGGGAAGGGGUUGGGAUGGGGACAGGGUGCACAGCAGGGCUGGGUAGGACCCCAGCCCCUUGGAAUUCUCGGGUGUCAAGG` gave a log2 enrichment of 1.4.
`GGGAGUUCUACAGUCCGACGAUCUGGGAGGUGGAUUAUGUUUAUUUUUUUAGCUCAUUUCCAGGGGUGGGAAUUUUUUUUUAAUAUGUGUCAUGAAUAAAGUUGUUUUUGAAAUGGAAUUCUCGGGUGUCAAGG` gave a log2 enrichment of 0.0851.
The log2 enrichment of `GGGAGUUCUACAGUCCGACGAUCCACAGACAACACGCACCCACACAGACACAGAGGGAAGGGGUAGGGAUGGGGACAGGGUGCACAGCAGGGCGGGGUAGGACCCCAGCCCCUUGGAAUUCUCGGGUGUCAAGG` is reported as 1.14.
`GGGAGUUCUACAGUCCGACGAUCUAACGUUAGAGGAGGAUCUGAUGGAUAUGGCAGUGGACGUGGAUUUGGGGAUGGCUAUAAUGGGUAUGGAGGAGGACCUGGAGGUGGCAAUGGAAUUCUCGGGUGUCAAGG` gave a log2 enrichment of 0.314.

Series 4
Target: RNA binding protein fox-1 homolog 2, RRM domain, GST-SBP tag (RBFOX2, Homo sapiens, UniProt O43251-10, residues 100-194)
Method: RNA Bind-n-Seq
Form: RNA
Matrix: in vitro
Concentration: 365 nM
Notes: natural RNA segment, single round, ends assumed
Relative to: no-protein control
Reading: higher = stronger binding
Target sequence (chain): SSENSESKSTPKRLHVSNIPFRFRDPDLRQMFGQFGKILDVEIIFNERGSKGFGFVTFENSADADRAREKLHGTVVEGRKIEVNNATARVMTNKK
`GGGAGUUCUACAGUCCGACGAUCUGGAUCAGGGUAGCUACAAGUGGCCGGGCCUUGCCUUUGGGAUUCUACCUGUUCCUAAUUUGGUGUGGGGUGCGGGGUCCCUGGCCCCUUUUCCACACUCCUCCUCCGACUGGAAUUCUCGGGUGCCAA`: “RBNS enrichment (R)” 0.272.
`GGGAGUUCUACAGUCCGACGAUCGGUCAUUUCCUCCCAGACACUGUUUUGCCCCAGCGCCCUUCGGAAUCACAGUCCCGCCGUGUCUUAGAAACUGCUUUGGCCGAUGCAAACAGCCCCCUACCCGUCCCCCUUGGAAUUCUCGGGUGCCAA`: “RBNS enrichment (R)” 0.41.
`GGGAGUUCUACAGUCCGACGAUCUCCUGCUCGGCUUUUCGCUUGAACAUUCCCUUGAUCUCAUCAGUUCUGAGCGGGUCAUGGGGCAACACGGUUAGCGGGGAGAGCACGGGGUAGCCGGAGAAGGGCCUCUGUGGAAUUCUCGGGUGCCAA`: “RBNS enrichment (R)” 0.908.
`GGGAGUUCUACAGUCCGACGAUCGUCAUCUGGUUUCAGUUCAGCAAGGGUACUUGAAUCAAUAUGGUAGCCCCAUCUGGACCAUCCACCCACAUCUGCUUGUCAAUCUGGCUGCAAACCUAAGCAGGCAGGUAUGGAAUUCUCGGGUGCCAA`: “RBNS enrichment (R)” 0.387.
`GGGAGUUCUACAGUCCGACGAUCCUGUGUUGUUUUUCUGCUGAGGGUGGAAUAUUCUGUCCUUUUAAUCAAGGUGAUUGUGAUUUUGACUAAUAAAAAGGACUUUAUAAUUGUGGGGGGACUUGGCUUUAAGAUGGAAUUCUCGGGUGCCAA` — result for “RBNS enrichment (R)”: 0.941.
`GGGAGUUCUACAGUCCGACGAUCUGUAGUUUCCAUGCAUAUUUCACCAUGGUUCGCACUCUGAUCCUCAUCUGGUUUAGAAAGCAAUUCAGUUUCUUUCAAACCACCAUAACCUAAGUGCUGCCCCAUCCUUCUGGAAUUCUCGGGUGCCAA`: “RBNS enrichment (R)” 1.22.
`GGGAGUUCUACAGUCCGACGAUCUAAGAGAGAAAAUUAAGUCUACUGAUUUGGUAUAGGUAAAUGGACAUUAAACUUUUUUAAAGUAAAGGAGAUGGUAGAUACCGUUAGAUUAUAGUCUUGAGGUUCAUGUGUGGAAUUCUCGGGUGCCAA` — result for “RBNS enrichment (R)”: 1.42.
For `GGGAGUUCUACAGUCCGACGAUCUCAAAAUCUCCUGUGUUUUUUAAGCUUUUUCAAAAUAGAUGUCUGAGGAAAACCAGCAGAAUAUUAACCAGUGUGGAGCCAGUUGUUGGGAGCACACACUUCCAUUAUGCUGGAAUUCUCGGGUGCCAA`, “RBNS enrichment (R)” read 0.364.
Under “RBNS enrichment (R)”, `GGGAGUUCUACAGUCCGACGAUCCAUCAGUGCACUUCUCCCAGGGGUGCUCACUGAAGCUGGUCCACGUCUAUAAACAGGUGACACUGGCUGCAGCAAAAAGCCAUUCGAUCCACACAAAUUGAUCUUCUAUCUGGAAUUCUCGGGUGCCAA` is recorded as 0.199.
Under “RBNS enrichment (R)”, `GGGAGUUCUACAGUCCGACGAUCCAAGGACUAACAUGCAAUCUGUGAAUUAAAAAUCUCAAUGCACUGUCUAGUGGAAGAUGAAUGGACAUGAUCAGUGACACCCCUGCUUGGUUUCUGGCGCUUUCAGAGACUGGAAUUCUCGGGUGCCAA` is recorded as 0.281.
`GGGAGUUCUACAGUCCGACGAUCAUAUAACCACCAAGGAUGUGUUGGCCUUUGGAGUUCCCCUUUAGGUUCCUAGUGAUGUGGAGGUUUAUGGGUGAAAAAUUAGUGGAGAGGGAACUCCUCUCCCCCAUUUUUGGAAUUCUCGGGUGCCAA` — result for “RBNS enrichment (R)”: 1.06.
`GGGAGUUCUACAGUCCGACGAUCACCACGCCCAGCUAAUAUUUUGUAUUUUCAGUAGGGACGGGGUUACACCAUGUUGGCCAGGCUGGUCUCGAACUCCUGACCUCAAGUGAUCCACCCGCCUCAGUCUCCCAUGGAAUUCUCGGGUGCCAA`: “RBNS enrichment (R)” 0.288.

Repeated from above (series 2):
`2'F-ANA at 1 4 5 6 13 15`: “mean fluorescence intensity” 48.4 a.u.
Under “mean fluorescence intensity”, `2'F-ANA at 6 10 12 13 15` is recorded as 186 a.u.
Under “mean fluorescence intensity”, `2'F-ANA at 1 2 3 8 9 11 13` is recorded as 169 a.u.
For `2'F-ANA at 1 7 10 15`, “mean fluorescence intensity” read 56.1 a.u.
Under “mean fluorescence intensity”, `2'F-ANA at 1 2 6 9` is recorded as 139 a.u.
`2'F-ANA at 2 7 11 12 13 15` — result for “mean fluorescence intensity”: 566 a.u.
Under “mean fluorescence intensity”, `2'F-ANA at 1 4 8 10 12 13 15` is recorded as 65.7 a.u.
